Assay results of several laboratories.
Protocols differ between the studies behind these lines.
Sample: plasma

SMILES | assay | system | conditions | how to read | measurement | value
CC1(C)CC[C@]2(NC(=O)C(C)(F)F)CC[C@]3(C)[C@H](C(=O)C=C4[C@@]5(C)C=C(C#N)C(=O)C(C)(C)[C@@H]5CC[C@]43C)[C@@H]2C1 | – | human | oral, dose not given, geometric least-squares mean, together with: efavirenz | – | AUC(0-t) | 695 ng·h/mL
O=C(CCc1ccc(CNC(C(=O)OC2CCCC2)C2CCCCC2)cn1)NO (stereo not shown) | – | healthy male humans | oral, 40 mg, single dose | baseline: fed over fasted | AUC(0-t) ratio | 0.94
COc1cc2c(cc1O)CCN1C[C@@H](CC(C)C)[C@@H](O)C[C@H]21 | refers to: non-deuterated analyte | healthy human male | oral, 25 mg, geometric mean, [14C]-tetrabenazine dosed | – | AUC(0-t) | 160 ng·h/mL
CN1CCC[C@]1(C)/C=C/S(=O)(=O)NC(=O)Nc1c2c(cc3c1CC(O)C3)CCC2 (stereo partly shown) | – | human | oral, 100 mg twice daily of parent drug, day 14, metabolite of dosed drug | – | AUC(0-t) | 280000 ng·h/mL
O=C(CCc1ccc(CNC(C(=O)O)C2CCCCC2)cn1)NO (stereo not shown) | – | healthy male humans | oral, 40 mg, single dose | baseline: fed over fasted | AUC(0-t) ratio | 0.93
CC[C@H](C)[C@@H]1NC(=O)[C@H](Cc2ccc(O)cc2)NC(=O)CCCSC[C@@H](C(=O)N(CC(=O)N[C@@H](CC(C)C)C(=O)NCC(N)=O)Cc2ccc(F)cc2)NC(=O)[C@H](CC(N)=O)NC(=O)[C@H](CCC(N)=O)NC1=O | – | healthy human | intranasal, 400 µg every 3 h, after second dose | – | AUC(0-t) | 0.132 ng·h/mL
CN1CCC[C@]1(C)/C=C/S(=O)(=O)NC(=O)Nc1c2c(cc3c1CCC3O)CCC2 (stereo partly shown) | – | human | oral, 12.5 mg twice daily of parent drug, day 14, metabolite of dosed drug | – | AUC(0-t) | 283000 ng·h/mL
CN(C(=O)C(C)(C)c1cc(C(F)(F)F)cc(C(F)(F)F)c1)c1cnc(N2C[C@H]3COC(O)CN3C[C@H]2CO)cc1-c1ccc(F)cc1CO (stereo partly shown) | – | human | oral, 120 mg, geometric mean | – | AUC(0-t) | 1140 ng·h/mL
COc1cc2c(cc1OC)[C@H]1C[C@@H](O)[C@H](CC(C)C)CN1CC2 | refers to: non-deuterated analyte | healthy human male | oral, 25 mg, geometric mean, [14C]-tetrabenazine dosed | – | AUC(0-t) | 109 ng·h/mL
CN1CCC[C@]1(C)/C=C/S(=O)(=O)NC(=O)Nc1c2c(cc3c1CCC3)CC=C2 | – | human | oral, 50 mg twice daily of parent drug, day 14, metabolite of dosed drug | – | AUC(0-t) | 707000 ng·h/mL

Excerpt of the above:
SMILES | assay | system | conditions | how to read | measurement | value
CC1(C)CC[C@]2(NC(=O)C(C)(F)F)CC[C@]3(C)[C@H](C(=O)C=C4[C@@]5(C)C=C(C#N)C(=O)C(C)(C)[C@@H]5CC[C@]43C)[C@@H]2C1 | – | human | oral, dose not given, geometric least-squares mean, together with: efavirenz | – | AUC(0-t) | 695 ng·h/mL
COc1cc2c(cc1O)CCN1C[C@@H](CC(C)C)[C@@H](O)C[C@H]21 | refers to: non-deuterated analyte | healthy human male | oral, 25 mg, geometric mean, [14C]-tetrabenazine dosed | – | AUC(0-t) | 160 ng·h/mL
